Measured values of several laboratories.
“And” joins repeats or separate records; there may be more than shown. Numbers after ± are the reported error.
UCHL1: Ubiquitin carboxyl-terminal hydrolase isozyme L1 (UCHL1, Homo sapiens, UniProt P09936)
Voltage-dependent P/Q-type calcium channel subunit alpha-1A: Voltage-dependent P/Q-type calcium channel subunit alpha-1A (Homo sapiens, UniProt O00555)
ADRA2C: Alpha-2C adrenergic receptor (ADRA2C, Homo sapiens, UniProt P18825)

C[C@H](CCC(C)(C)O)[C@H]1CC[C@H]2[C@@H]3CC=C4C[C@@](C)(O)CC[C@]4(C)[C@H]3CC[C@]12C
Emax (Glutamate NMDA receptor; GRIN1/GRIN2A (Homo sapiens, UniProt Q05586+Q12879); ion current, positive modulator, automated patch clamp; HEK293 (tetracycline-inducible); no 24(S)-HC, added: glutamate 1 µM and glycine; reference: baseline current): 264%

CC(=O)N[C@H](C(=O)N1C[C@H](O)C[C@H]1C(=O)NCc1ccc(-c2scnc2C)cc1)C(C)(C)SCCCCCCNC(=O)C[C@@H]1N=C(c2ccc(Cl)cc2)c2c(sc(C)c2C)-n2c(C)nnc21
binding stoichiometry (BRD4/VHL, BD2; with elongins B/C (Homo sapiens, UniProt O60885+P40337); ITC; concentration not given, 25 °C, ternary complex, added: BRD4 BD2): 0.68 ± 0.03

c1coc(-c2n[nH]cc2-c2ccnc3ccccc23)c1
log2 fold change (Serine/threonine-protein kinase BUR1 (CRK1, Candida albicans, UniProt Q9Y7W4); kinase binding, MIB/MS competition; Candida albicans lysate; 10 µM; reference: DMSO, negative = stronger binding): -0.07

CCN(c1ccccc1)S(=O)(=O)c1ccc(Cl)c(C(=O)Nc2ccccc2N2CCN(CC3CC3)C2=O)c1
selectivity ratio (N-myristoyltransferase (Cryptosporidium parvum, UniProt Q5CV46); enzyme activity, inhibitor; reference: HsNMT1 IC50 over target IC50): > 2 fold

COc1ccc(NC(=O)C(C#N)=Cc2cccc(Cl)c2Cl)cc1
labelling (UCHL1; covalent, intact protein LC-MS; 12.5 µM): 29.9%

Nc1ncnc2c1ncn2[C@@H]1O[C@H](COP(=O)(O)OP(=O)(O)OP(=O)(O)O)[C@@H](O)[C@H]1O
Km (Creatine kinase U-type, mitochondrial (CKMT1A, Homo sapiens, UniProt P12532, H99K); substrate, ADP-Glo luminescence; pH 8.5, forward reaction, H61K mutant, added: second substrate in excess): 400 ± 100 µM

CN(C)C(=O)C(CCN1CCC(O)(c2ccc(Cl)cc2)CC1)(c1ccccc1)c1ccccc1
V1/2 (Calcium-activated potassium channel subunit alpha-1, with LRRC26 γ1 subunit (KCNMA1, Homo sapiens, UniProt Q12791); ion current, inside-out patch, mean of individual fits; BKα/γ1 channel; 10 µM, added: nominally 0 Ca2+): -7 ± 5 mV

N[C@H](COP(=O)(O)O)Cc1c[nH]cn1
Km (Act2; substrate, coupled phosphate release): 18 ± 1 µM

COc1ccc(CN2CCN(C(=O)CCl)CC2)cc1.Cl
labelling (UCHL1; covalent, intact protein LC-MS; 12.5 µM): 21.6%

N[C@@H](Cc1ccc(O)c(O)c1)C(=O)O
IC30 (Voltage-dependent P/Q-type calcium channel subunit alpha-1A; ion current, antagonist, automated patch clamp): > 30 µM

N#Cc1ccc2[nH]cc(CCCCN3CCN(c4ccc5oc(C(N)=O)cc5c4)CC3)c2c1
Hill coefficient (Sodium-dependent serotonin transporter (SLC6A4, Homo sapiens, UniProt P31645); serotonin uptake, inhibitor; COS-7 expressing SLC6A4; 0 min preincubation, added: [3H]5-HT): 1.76 ± 0.19

Cn1ncc(S(=O)(=O)NC2(c3cccc(OC(F)(F)F)c3)CC2)c1C(=O)O
remaining activity (malate dehydrogenase; enzyme activity, inhibitor; 200 µM, pH 7.0, 1% DMSO, aggregation counter-screen): 98%

C#CCCCCC(F)=C1O[C@H](CO)[C@@H](O)[C@H](O)[C@H]1O
apparent Km (uncharacterized protein (Saccharopolyspora erythraea, UniProt A4F7P9); concentration not given, pH 7.6, 20 °C, added: p-nitrophenyl-β-D-glucopyranoside): 2430 ± 200 µM

Nc1ncnc2c1ncn2[C@@H]1O[C@H](COP(=O)(O)CP(=O)(O)OP(=O)(O)O)[C@@H](O)[C@H]1O
specific binding (P2X purinoceptor 1 (P2RX1, Homo sapiens, UniProt P51575, F188L); saturation binding; HEK293; 25 nM): 3140 CCPM and 2490 CCPM

O=c1ccc2c(OCCCCO)c3ccoc3cc2o1
channel block (Potassium voltage-gated channel subfamily A member 3 (Kcna3, Mus musculus, UniProt P16390); Kv1.3 current, blocker; mouse L929 cells; concentration not given): inactive

Cn1ncc(S(=O)(=O)NCc2ccn(-c3ccc(Br)cc3)n2)c1C(=O)O
remaining activity (malate dehydrogenase; enzyme activity, inhibitor; 200 µM, pH 7.0, 1% DMSO, aggregation counter-screen): 75%

Cn1c(-c2ccccc2)c(C(=O)CCl)c2ccccc21
labelling (UCHL1; covalent, intact protein LC-MS; 12.5 µM): 42.7%

C[C@@H](O)[C@H](N)C(=O)O
Km (ilvA (Escherichia coli, UniProt P04968); 2-ketobutyrate formation, substrate, steady-state kinetics): 7300 µM

O=C(NC1CCC1)c1ccc2nc(-c3cccc(NS(=O)(=O)NCCN4CCCCC4)c3)cn2c1
remaining activity (Leucine-rich repeat serine/threonine-protein kinase 2 (LRRK2, Homo sapiens, UniProt Q5S007, G2019S); enzyme activity; 10 µM): 94%

O=C[C@H](O)COP(=O)(O)O
Km (1-deoxy-D-xylulose-5-phosphate synthase (dxs, Escherichia coli, UniProt P77488); substrate, IspC-coupled DXP formation): 19 to 73 µM

Oc1noc2cc(Cl)ccc12
radioactivity reduction (D-amino-acid oxidase (Rattus norvegicus, UniProt O35078); blocker, in vitro autoradiography; rat brain sections, cerebellum, pons; 10 µM, added: [11C] radiotracer; reference: no pretreatment): > 80%

O=C(O)c1ccc([N+](=O)[O-])cc1
current density (BEST1 (Homo sapiens, UniProt O76090); whole-cell patch clamp; HEK293 transiently expressing channel; concentration not given, membrane potential 80 mV): 103 pA/pF and 119 pA/pF and 56.6 pA/pF and 56.3 pA/pF and 117 pA/pF and 83 pA/pF and 168 pA/pF

COc1ccc2c(c1)c(CC(=O)O)c(C)n2C(=O)c1ccc(Cl)cc1
inhibition (Voltage-dependent P/Q-type calcium channel subunit alpha-1A; ion current, antagonist; HEK293; 10 µM): 1%

Cc1cc(Oc2ncccc2CN2CCN(c3cccc(Cl)c3)CC2)ccc1-c1c(C)c(=O)[nH]c(=O)n1C
selectivity ratio (ADRA2C; binding, radioligand binding; added: [3H]rauwolscine; reference: Ki alpha2B over Ki alpha2C): 6

N[C@@H](CCC(=O)O)C(=O)O
mean current (glc-2 (Caenorhabditis elegans, UniProt Q17328, T283S); two-electrode voltage clamp; Xenopus laevis oocytes): 1.1 µA

CC#CC(=O)N(Cc1ccccc1OC)C1CCN(C(C)=O)CC1
labelling (UCHL1; covalent, intact protein LC-MS; 12.5 µM): 9.51%

Cc1cc(Oc2ncccc2CN2CCN(c3ccccn3)CC2)ccc1-c1c(C)c(=O)[nH]c(=O)n1C
selectivity ratio (ADRA2C; binding, radioligand binding; added: [3H]rauwolscine; reference: Ki alpha2A over Ki alpha2C): 4

COC(=O)Cc1ccc(C(=O)CCl)s1
labelling (UCHL1; covalent, intact protein LC-MS; 12.5 µM): 26.1%

O=c1nc(SCc2cc(F)cc(C(F)(F)F)c2)nc(SCc2ccc3nc(Cl)ccc3c2)[nH]1
decatenated DNA (DNA topoisomerase 2-alpha (TOP2A, Homo sapiens, UniProt P11388); decatenation; 31.25 µM, replicate 2): 0.2%

Cc1cc2c(cc1CCNS(=O)(=O)c1ccsc1C(=O)O)CCCC2
remaining activity (malate dehydrogenase; enzyme activity, inhibitor; 200 µM, pH 7.0, 1% DMSO, aggregation counter-screen): 71%

CCC1(O)CCCN(C(=O)c2ccc(-c3ccc(F)c(NC(=O)CCl)c3)cc2)C1 (centres unmarked)
protein adduct (DNA dC->dU-editing enzyme APOBEC-3A (Homo sapiens, UniProt P31941); covalent modifier, intact protein mass spectrometry, item: adduct +26309 Da; 125 µM, 1 h, 5-fold molar excess): 97.5%

CCC1CC1(NS(=O)(=O)c1cccc(Cl)c1O)c1ccc(Cl)cc1 (centres unmarked)
remaining activity (malate dehydrogenase; enzyme activity, inhibitor; 200 µM, pH 7.0, 1% DMSO, aggregation counter-screen): 114%

C=CC(=O)Nc1cccc(Oc2nc(Nc3ccc(N4CCN(C)CC4)cc3)nc3ccoc23)c1
kinact (Tyrosine-protein kinase BTK, non-activated (BTK, Homo sapiens, UniProt Q06187); covalent inhibitor): 0.00593 s⁻¹

Cc1cc(C(C)N(Cc2c(C)noc2C)C(=O)CCl)c(C)o1 (centres unmarked)
labelling (UCHL1; covalent, intact protein LC-MS; 12.5 µM): 20.8%

CCc1ccc(C(COC)NS(=O)(=O)c2ccsc2C(=O)O)o1 (centres unmarked)
remaining activity (malate dehydrogenase; enzyme activity, inhibitor; 200 µM, pH 7.0, 1% DMSO, aggregation counter-screen): 106%

C=CC(=O)N1CCC(COCC(=O)N2CCN(c3nc(-c4cnc(N)nc4C(F)F)nc(N4CCOC[C@@H]4C)n3)CC2)CC1
remaining binding (Phosphatidylinositol 4,5-bisphosphate 3-kinase catalytic subunit alpha isoform (PIK3CA, Homo sapiens, UniProt P42336, I800L); KINOMEscan; 1 µM): 0.2%

C=CC(=O)N1CCN(c2nc(OC[C@@H]3CCCN3C)nc3c(F)c(-c4nc(N)cc(C)c4C(F)(F)F)c(Cl)cc23)[C@@H](C)C1
association rate constant (GTPase KRas, GDP-bound (KRAS, Homo sapiens, UniProt P01116, Q61H); binding, surface plasmon resonance): 137000 ± 8100 M⁻¹ s⁻¹

CC[C@@H]1[C@H](F)C(=O)N[C@@H]1COc1nccc2cc(C(N)=O)c(OC)cc12
inhibition (Serine/threonine-protein kinase 38-like (STK38L, Homo sapiens, UniProt Q9Y2H1); ATP-site probe binding, ActivX profiling; THP-1 cell lysate; 0.01 mM, Lys1 site): 5.2%

NC(=O)C[C@H](N)C(=O)O
Km (L-asparaginase Candida palmioleophila; substrate, Nesslerization; pH 7.5, 35 °C): 23 µM

O=c1nc(SCc2cc(F)cc(C(F)(F)F)c2)nc(SCc2ccc3sccc3c2)[nH]1
decatenated DNA (DNA topoisomerase 2-beta (TOP2B, Homo sapiens, UniProt Q02880); decatenation; 15.6 µM, replicate 2): 1%

N#CC(=Cc1cccc(O)c1)C(=O)NCc1ccco1
labelling (UCHL1; covalent, intact protein LC-MS; 12.5 µM): 13.2%

Nc1nc(SCc2ccc(Cl)cc2)nn1S(=O)(=O)c1ccc([N+](=O)[O-])cc1
probe labeling increase (Lysophospholipase-like protein 1 (LYPLAL1, Homo sapiens, UniProt Q5VWZ2); enzyme activity, activator, gel-based ABPP; purified protein; concentration not given, added: FP-rhodamine; reference: DMSO): 2.1 fold

CC[C@@H]1C(=O)OC[C@@H]1Cc1cncn1C.Cl
IC30 (Voltage-dependent P/Q-type calcium channel subunit alpha-1A; ion current, antagonist, automated patch clamp): > 30 µM

Cc1cc(Oc2ncccc2CN2CCN(c3ccc(Br)cc3)CC2)ccc1-c1c(C)c(=O)[nH]c(=O)n1C
selectivity ratio (ADRA2C; binding, radioligand binding; added: [3H]rauwolscine; reference: Ki alpha2B over Ki alpha2C): 2
